Results of several laboratories.
Numbered parts are unrelated; each lists some results of a single study. Substitutions count along the parent as printed.

Sample 1
Target: Prothrombin, mature alpha-thrombin (F2, Homo sapiens, UniProt P00734)
Technique: aptamer microarray, sandwich
Molecule type: DNA with 2'F-ANA
Sample: in vitro
Concentration: 200 nM
Setting: whole 15-mer aptamer, many near background
Added: Cy3 exosite-II aptamer, 400 nM
Direction: higher = stronger binding
Sequence: GGTTGGTGTGGTTGG
For `2'F-ANA at 3 5 8 10 11 12 14`, “mean fluorescence intensity” read 54.8 a.u.
For `2'F-ANA at 3 7 10 11 15`, “mean fluorescence intensity” read 511 a.u.
For `2'F-ANA at 1 2 4 7 8 9 10 11 14 15`, “mean fluorescence intensity” read 49.5 a.u.
`2'F-ANA at 3 4 5 6 8 9 11 12` — result for “mean fluorescence intensity”: 161 a.u.
Under “mean fluorescence intensity”, `2'F-ANA at 1 4 8 9 10 11 12 15` is recorded as 56.3 a.u.
Under “mean fluorescence intensity”, `2'F-ANA at 2 4 5 6 9 11 13 15` is recorded as 52.7 a.u.
`2'F-ANA at 1 3 5 6 9 14` — result for “mean fluorescence intensity”: 55.9 a.u.
`2'F-ANA at 1 2 3 5 6 8 11`: “mean fluorescence intensity” 161 a.u.
For `2'F-ANA at 2 6 8 11 14 15`, “mean fluorescence intensity” read 113 a.u.
For `2'F-ANA at 1 2 6 8 12 15`, “mean fluorescence intensity” read 344 a.u.
`2'F-ANA at 1 2 5 7 10 12 14 15`: “mean fluorescence intensity” 52.3 a.u.
Under “mean fluorescence intensity”, `2'F-ANA at 1 3 5 6 7 9 10 12 13 14` is recorded as 44.5 a.u.
Under “mean fluorescence intensity”, `2'F-ANA at 2 3 4 7 8 10 11 12 13 15` is recorded as 280 a.u.
Under “mean fluorescence intensity”, `2'F-ANA at 2 3 5 7 8 9 10 12 13 14 15` is recorded as 48.7 a.u.
`2'F-ANA at 2 6 8 12 13 14`: “mean fluorescence intensity” 172 a.u.
Under “mean fluorescence intensity”, `2'F-ANA at 1 2 5 6 9 11 12 14` is recorded as 50.9 a.u.
For `2'F-ANA at 1 2 3 6 10 11 13 15`, “mean fluorescence intensity” read 59.3 a.u.
`2'F-ANA at 1 4 5 6 7 8 9 11`: “mean fluorescence intensity” 72 a.u.
For `2'F-ANA at 1 3 4 8 9 14 15`, “mean fluorescence intensity” read 64.5 a.u.
`2'F-ANA at 1 2 3 4 5 6 7 10 11 13 14 15` — result for “mean fluorescence intensity”: 48.7 a.u.
`2'F-ANA at 1 2 3 5 6 7 9 12 15` — result for “mean fluorescence intensity”: 103 a.u.
Under “mean fluorescence intensity”, `2'F-ANA at 2 4 8 9 10 11 12` is recorded as 157 a.u.
`2'F-ANA at 1 4 5 6 7 9 15`: “mean fluorescence intensity” 56.7 a.u.

Sample 2
Target: Interferon regulatory factor 5, full length, phosphomimetic (IRF5, Homo sapiens, UniProt Q13568-2, residues 1-514, K96S/S451D/S453D/S456D/S462D)
Technique: protein-binding microarray
Molecule type: double-stranded DNA, one strand shown
Sample: in vitro
Concentration: 250 nM
Setting: 60-bp whole probe
Added: salmon DNA 0.4 mg/ml
Reference: random background probes
Direction: higher = stronger binding
All sequences stand within: GCCTAGCAC … GTCTTGATTCGCTTGACGCTGCTG
`TTAGCTATCGGGTATCGATTAGTGCTA` gave a log fluorescence of 6.6 z-score.
`GGGAGATGACTAAGAGGGGTGTGCTAG` has a log fluorescence of -0.263 z-score.
With `TTAGGTCCCGGTATCGGTTAGTGCTAG` the log fluorescence was 4.53 z-score.
The log fluorescence of `GACAGACTGCTTATCCTGACGTGCTAG` is reported as -0.404 z-score.
For `CCCCCAGGATTCAATTACCAGTGCTAG`, the log fluorescence was -0.243 z-score.
`TCCTCTTTCACTGCTCCATACGTGCTA` has a log fluorescence of 3.93 z-score.
`TTAGGTTTCAGACTGGGTTAGTGCTAG` has a log fluorescence of 0.685 z-score.
`TTAGAACTGAGTATCGGTTAGTGCTAG` has a log fluorescence of 7.01 z-score.
The log fluorescence of `TTTGAACTGGGGACTGGATTAGTGCTA` is reported as -0.116 z-score.
For `TTTGGTTTCGACTATCGGTTAGTGCTA`, the log fluorescence was 9.72 z-score.
With `GACGAACTTGGGACTGGAGACGTGCTA` the log fluorescence was -0.389 z-score.
The log fluorescence of `GACGGTCTCGGTTTCGGGTCGTGCTAG` is reported as 5.27 z-score.
`GGCGATTTCAGTCTCGAGACGTGCTAG` has a log fluorescence of 1.34 z-score.
For `TTAGATATCAGTATAGATTAGTGCTAG`, the log fluorescence was 1.59 z-score.
With `GACGAACTGGAGTATCGAGACGTGCTA` the log fluorescence was 0.952 z-score.
`ACACATCTCACTCTAATCTCGTGCTAG` gave a log fluorescence of 0.601 z-score.
The log fluorescence of `TCATTTGACTCTTTCTGACTGTGCTAG` is reported as 0.782 z-score.
For `TTAGATATCAGTCTAGATTAGTGCTAG`, the log fluorescence was 1.43 z-score.
With `GACGATTCCAGTCTCGAGACGTGCTAG` the log fluorescence was 0.367 z-score.

Sample 3
Target: Histone acetyltransferase KAT6A, winged helix 2, GST fusion (KAT6A, Homo sapiens, UniProt Q92794, residues 85-181)
Technique: protein binding microarray
Molecule type: double-stranded DNA, one strand shown
Sample: in vitro
Concentration: not given
Setting: 8-mer, flanks averaged, mean of 2 arrays, mostly near background
Reference: not given
Direction: higher = stronger binding
Target sequence (chain): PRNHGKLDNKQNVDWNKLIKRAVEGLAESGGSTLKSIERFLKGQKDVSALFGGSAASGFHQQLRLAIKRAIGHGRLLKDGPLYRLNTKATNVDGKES
The E-score of `TAGGCGGA` is reported as 0.0902.
`CAAGTATC` has an E-score of -0.215.
With `AGAATGGG` the E-score was -0.0444.
The E-score of `AACAAAAC` is reported as 0.0352.
`CTCAAACC` has an E-score of 0.0686.
`AGTGTGGG` gave an E-score of -0.00741.
`GCGGTGCC` gave an E-score of 0.236.
The E-score of `AACTTCCG` is reported as -0.00663.
`GAGGGGCA` has an E-score of 0.122.
`ATGGATCA` gave an E-score of -0.0922.
`CAGATCGG` gave an E-score of 0.0154.
For `ATAGTAGG`, the E-score was -0.0845.
`CAAACTGG` gave an E-score of 0.146.
The E-score of `ATGACTCA` is reported as -0.0966.
The E-score of `ACCCATAG` is reported as -0.271.
For `CTCGTCCC`, the E-score was 0.0659.
For `AAATCCCT`, the E-score was 0.0365.
For `ATTCGACA`, the E-score was -0.0295.
`CATTGCAG` has an E-score of 0.133.
`AAGAGACT` has an E-score of -0.188.
With `CCCGAGGA` the E-score was 0.0582.
`CCTTCATA` has an E-score of 0.0266.
For `CTGCCCTA`, the E-score was 0.143.

Sample 4
Target: CCNE2, cyclin fold, Cln2 fusion (human)
Technique: yeast growth competition, sequencing
Sample: yeast
Setting: weak parent motif
Reference: not given
Direction: higher = stronger binding
Starting sequence: FOXM1 docking peptide (human); PHLARPIKVESPP
Under “normalised enrichment score”, `P12A` is recorded as -1.21.
Under “normalised enrichment score”, `S11A` is recorded as -0.0922.
`E10A`: “normalised enrichment score” -0.327.
Under “normalised enrichment score”, `V9A` is recorded as -0.0783.
Under “normalised enrichment score”, `K8A` is recorded as -0.234.
Under “normalised enrichment score”, `R5A` is recorded as -0.564.

For quick reference, copied from above (sample 3):
`CAGATCGG` gave an E-score of 0.0154.
For `ATAGTAGG`, the E-score was -0.0845.
`CAAACTGG` gave an E-score of 0.146.
The E-score of `ATGACTCA` is reported as -0.0966.
The E-score of `ACCCATAG` is reported as -0.271.
For `CTCGTCCC`, the E-score was 0.0659.
For `AAATCCCT`, the E-score was 0.0365.
For `ATTCGACA`, the E-score was -0.0295.
